Assay results of several laboratories.
Lines come from different studies, so protocols differ.

Substance = tunicamycin; tested on = Klebsiella pneumoniae; assay = broth microdilution, EUCAST; system = DSM 30104; conditions = 18 to 24 h, 37 °C; endpoint = MIC; result = > 64 µg/mL
Substance = colistin; tested on = Klebsiella pneumoniae; assay = broth microdilution; system = K4 parental, KPC-2; endpoint = MIC; result = 32 µg/mL
Substance = colistin; tested on = Klebsiella pneumoniae; system = ATCC 700603, ESBL SHV-18; endpoint = MIC; result = 0.25 µg/mL
Substance = insulin human; assay = measured: EPHA7 mRNA; system = uninfected mouse, brain; conditions = i.p., dose not given; how to read = relative to: PBS; endpoint = fold change; result = 1.02
Substance = Polymyxin B; tested on = Klebsiella pneumoniae; assay = broth microdilution; system = ATCC 13883; conditions = 20 h; endpoint = MIC; result = < 0.5 µg/mL
Substance = Polymyxin B; tested on = Klebsiella pneumoniae; assay = broth microdilution, MH medium; system = carbapenem-resistant NCCP 15864; conditions = 16 h, 37 °C; endpoint = MIC; result = 2 µM
Substance = Polymyxin B; tested on = Klebsiella pneumoniae; assay = DCFH-DA fluorescence; system = ATCC 700603; conditions = 4 × MIC; how to read = higher = more ROS; endpoint = ROS level; result = 595 a.u.
Substance = gentamicin; tested on = Klebsiella pneumoniae; assay = broth microdilution; system = ATCC 43816 acrAB overexpressor, cation-adjusted MHB; endpoint = MIC; result = < 0.5 µg/mL
Substance = Polymyxin B; tested on = Klebsiella pneumoniae; assay = broth microdilution; system = KPC-100 producing; endpoint = MIC; result = 8 µg/mL

A few entries again:
Substance = Polymyxin B; tested on = Klebsiella pneumoniae; assay = broth microdilution; system = KPC-100 producing; endpoint = MIC; result = 8 µg/mL
